Assay results gathered from unrelated publications.
Several values in a cell are separate wells, animals, samples, runs or records.
Chain of UniProt P05177 (whole entry, looked up): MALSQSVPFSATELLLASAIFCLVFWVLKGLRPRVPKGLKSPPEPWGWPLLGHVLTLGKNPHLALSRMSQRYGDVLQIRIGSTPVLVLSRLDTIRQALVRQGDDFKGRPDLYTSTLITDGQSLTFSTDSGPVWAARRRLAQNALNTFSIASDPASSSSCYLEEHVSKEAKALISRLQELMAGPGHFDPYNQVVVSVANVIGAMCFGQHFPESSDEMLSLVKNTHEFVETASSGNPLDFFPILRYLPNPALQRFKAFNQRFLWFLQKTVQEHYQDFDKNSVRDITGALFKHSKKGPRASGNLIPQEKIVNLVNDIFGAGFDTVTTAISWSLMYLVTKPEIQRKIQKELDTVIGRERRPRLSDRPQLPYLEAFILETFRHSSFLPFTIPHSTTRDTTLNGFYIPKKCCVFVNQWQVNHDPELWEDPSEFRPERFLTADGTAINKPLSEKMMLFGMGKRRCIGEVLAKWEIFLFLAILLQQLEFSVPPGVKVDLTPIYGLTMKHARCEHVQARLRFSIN

Structure (SMILES) | tested on | test | system | conditions | scale | measurement | value
C=CC(=O)Nc1cccc(Cn2ncc3cnc(Nc4cnn(CCOC)c4)nc32)c1 | MLK2 human | binding, KINOMEscan | – | 100 nM | lower = stronger binding | percent of control | 56%
CN1CCCNC(=O)c2cccc(c2)C(=O)NCCCN(C)CCCNc2cccc3c2C(=O)c2cccc(c2C3=O)NCCC1 | Ca9-22 | CCK-8 | – | 5 µM, 48 h | reference: untreated | viability | 10.2%
CCCC[C@H](NC(C)=O)C(=O)N[C@@H](CO)C(=O)N[C@H](C(=O)N1CCC[C@H]1C(=O)N[C@]1(C)CCCCCCC=CCCC[C@@](C)(C(=O)N[C@@H](Cc2ccccc2)C(=O)N[C@@H](CCCCN)C(=O)N[C@@H](CCCNC(=N)N)C(=O)N[C@@H](CC(C)C)C(=O)N[C@@H](CCC(N)=O)C(N)=O)NC(=O)[C@H](CCCNC(=N)N)NC(=O)[C@H](CCCC)NC(=O)[C@H](CC(C)C)NC(=O)[C@H](CCCNC(=N)N)NC(=O)[C@H](CCCNC(=N)N)NC(=O)[C@H](CCCNC(=N)N)NC1=O)[C@@H](C)O | proteinase K | LC-MS | – | 25 µM, 430.6 min, pH 7.4 | – | remaining peptide | 50.9% and 47.6%
O=C1NC2(CC2)COc2ncc(F)cc2[C@H]2COCCN2c2ccn3ncc1c3n2 | CHL | chromosomal aberration test | – | 5 µg/mL, 24 h, without S9 | – | polyploid cells | 0.3%
CC(C)Cc1ccc(C(C)C(=O)N[C@@H](CCCCNC(=O)CCOCCOCCOCCOCCOCCOCCNC(=O)CN2CCN(CC(=O)[O-])CCN(CC(=O)[O-])CCN(CC(=O)[O-])CC2)C(=O)Nc2cccc3c(C(=O)NCC(=O)N4CC(F)(F)C[C@H]4C#N)ccnc23)cc1.[177Lu+3] (stereo partly drawn) | U-87 MG tumour model | – | host not given, tumour | 48 h, tumour-bearing | – | tracer uptake | 3.5 %ID/g
COc1cc(N2CCN(C(=O)CCOCCNC(=O)[C@@H]3CCCN3)CC2)ccc1Nc1ncc(Cl)c(Nc2ccccc2P(C)(C)=O)n1 | NCI-H3122 | CCK-8 | – | 0.1 µM, 48 h | – | viability | 80% and 82% and 85%
COC1CN([C@H]2CC[C@H]([C@@]3(C)Oc4c(Cl)cc(C(=O)NCc5c(SC)cc(C)[nH]c5=O)c(C)c4O3)CC2)C1 | – | RNA-seq, measured: DENND2B mouse homolog | mouse, HT-1376 xenograft, whole blood | dose not given | reference: vehicle | log2 fold change | 1.55
Cc1ccc2c(c1)sc(-c1ccc(N(C)C)cc1)[n+]2C.[I-] | Trypanosoma cruzi | reporter mRNA translation, inhibitor, measured: Renilla luciferase mRNA | cell-free extract | concentration not given, test 1 | reference: positive over negative control | translation activity | 49.9% and 45.7%
COc1cccc(OC)c1-c1cc(C(=O)NC2(C(=O)O)C3CC4CC(C3)CC2C4)nn1-c1ccc(C(=O)N(C)CCOCCN(C)C(=O)[C@H](CCCCNC(=O)[C@H](CC(C)C)NC(=O)C2OC2C(=O)O)NC(=O)CN2CCN(CC(=O)[O-])CCN(CC(=O)[O-])CCN(CC(=O)[O-])CC2)cc1C(C)C.[177Lu+3] (mixture of isomers) | HT-29 tumour model | – | host not given, bone | 24 h, tumour-bearing | – | tracer uptake | 0.45 %ID/g
CCCn1ncc(CN2CCCC(C(=O)c3cccc(OC(C)C)c3)C2)c1C (stereo not drawn) | Trypanosoma cruzi | reporter mRNA translation, inhibitor, measured: Renilla luciferase mRNA | cell-free extract | concentration not given, test 1 | reference: positive over negative control | translation activity | 86.9%
O=C(Nc1cnccc1-c1ccc([18F])nc1)c1ccnc(NC(=O)C2CC2)c1 | – | – | FVB/NJ mice, both sexes, brain | intravenous, 15 min, median, no P-gp inhibitor | – | SUV | 0.096
CNC(=O)C1CCCN(C(=O)C2CC3CCC2N3C(=O)[C@@H]2C[C@@H](O)CN2C(=O)NCc2cccc(Cl)c2F)C1 (mixture of isomers) | Cytochrome P450 1A2 (CYP1A2, Homo sapiens, UniProt P05177) | preincubation with NADPH | human | 5.56 µM | reference: negative control | remaining activity | 115% and 99.5% and 113%
Cc1ncsc1-c1ccc(C(C)NC(=O)C2CC(O)CN2C(=O)C(NC(=O)CCCCCCCCCCN2CCCC(Nc3ncc(Cl)c(Nc4ccccc4S(=O)(=O)C(C)C)n3)C2)C(C)(C)C)cc1 (stereo not drawn) | 22Rv1 | RNA-seq, measured: TFAP2C mRNA | – | concentration not given | reference: DMSO | log2 fold change | -1.59
N#C[C@@H]1CC(F)(F)CN1C(=O)CNC(=O)c1ccnc2c(NC(=O)[C@@H](N)CCCCNC(=O)CCOCCOCCOCCOCCOCCOCCNC(=O)CN3CCN(CC(=O)[O-])CCN(CC(=O)[O-])CCN(CC(=O)[O-])CC3)cccc12.[177Lu+3] | U-87 MG tumour model | – | host not given, stomach | 1 h, tumour-bearing | – | tracer uptake | 0.4 %ID/g
CC(C)(O)c1ncc([S@](N)(=O)=NC(=O)Nc2c3c(cc4c2CCC4)CCC3)s1 | – | measured: musculoskeletal, connective tissue | healthy human | oral, dose not given, all active doses pooled | – | subjects with TEAEs | 6%
CC(C)OCCOCc1ccc(OCC(O)CN(N=O)C(C)C)cc1 (stereo not drawn) | Salmonella typhimurium | Ames test | TA100 | 5000 µg/plate, 30 % hamster S9 | reference: solvent control | revertant fold increase | 3.4 fold
COCC1CN(C2CCN(c3cc(OC)c(Nc4ncc(Br)c(Nc5ccc6c(c5P(C)(C)=O)OCCO6)n4)cc3C)CC2)C1 | – | – | EGFR-mutant NSCLC patients, plasma | oral, 90 mg single dose, geometric mean | – | AUC(0-inf) | 14.2 µg·h/mL
Nc1ncc(-c2cc(-c3cnn(CC(F)(F)F)c3)ncc2F)nc1C(=O)NC1CNCC(F)C1 (stereo not drawn) | RAF1 | KINOMEscan | – | 1 µM | reference: DMSO control | remaining binding | 99%
COc1cccc(OC)c1-c1cc(C(=O)NC2(C(=O)O)C3CC4CC(C3)CC2C4)nn1-c1ccc(C(=O)NCCNC(=O)[C@H](CCCCNC(=O)[C@H](CC(C)C)NC(=O)C2OC2C(=O)O)NC(=O)CN2CCN(CC(=O)[O-])CCN(CC(=O)[O-])CCN(CC(=O)[O-])CC2)cc1C(C)C.[177Lu+3] (mixture of isomers) | HT-29 tumour model | – | host not given, pancreas | 24 h, tumour-bearing | – | tracer uptake | 0.5 %ID/g
COc1ccc2c(c1)C(C)(C)C(/C=C/C1=C(Oc3ccc(C(=O)NCCCCOc4cc(CN(Cc5ccccn5)Cc5ccccn5)cc(CN(Cc5ccccn5)Cc5ccccn5)c4)cc3)C(=C/C=C3/N(CCCCS(=O)(=O)[O-])c4ccc(OC)cc4C3(C)C)CCC1)=[N+]2CCCCS(=O)(=O)[O-].O=[N+]([O-])[O-].O=[N+]([O-])[O-].[99Tc+].[C-]#[O+].[C-]#[O+].[C-]#[O+].[Zn+2] | Staphylococcus aureus | biodistribution | BALB/c mouse, bacterial myositis | 12 h post-injection | – | thyroid/trachea uptake | 1.15 %ID/g
N#C[C@@H]1CC(F)(F)CN1C(=O)CNC(=O)c1ccnc2c(NC(=O)[C@H](CCCCNC(=O)CCOCCOCCOCCOCCOCCOCCNC(=O)CN3CCN(CC(=O)[O-])CCN(CC(=O)[O-])CCN(CC(=O)[O-])CC3)NC(=O)CCCc3ccc(I)cc3)cccc12.[177Lu+3] | U-87 MG tumour model | – | host not given, blood | 1 h, tumour-bearing | – | tracer uptake | 21.4 %ID/g
CNS(=O)(=O)Nc1nccc(Cc2c(C)c3ccc(Oc4ncccc4F)cc3oc2=O)c1F | RERF-LC-Ad2 | cell viability | – | 7 days | – | IC50 | 6.04 nM
O=C1C2CC3CC1CC(C(=O)N1CCN(c4ccc([N+](=O)[O-])c5ncccc45)CC1)(C3)C2 | Salmonella typhimurium | Ames test | TA100 | 0.13 µg/well, without S9 | reference: vehicle | revertant fold increase | 0.8
CCN(CC)CC#CCNc1ccnc2cc(Cl)ccc12 | Salmonella typhimurium | mini-Ames test | TA100 | 62.5 µg/well, with rat liver S9 | – | revertants | 15 revertants/well and 19 revertants/well

For quick reference, copied from above:
Structure (SMILES) | tested on | test | system | conditions | scale | measurement | value
O=C(Nc1cnccc1-c1ccc([18F])nc1)c1ccnc(NC(=O)C2CC2)c1 | – | – | FVB/NJ mice, both sexes, brain | intravenous, 15 min, median, no P-gp inhibitor | – | SUV | 0.096
COC1CN([C@H]2CC[C@H]([C@@]3(C)Oc4c(Cl)cc(C(=O)NCc5c(SC)cc(C)[nH]c5=O)c(C)c4O3)CC2)C1 | – | RNA-seq, measured: DENND2B mouse homolog | mouse, HT-1376 xenograft, whole blood | dose not given | reference: vehicle | log2 fold change | 1.55
